Results pooled from the literature.
Lines come from different studies, so protocols differ. Numbers after ± are the reported error.
Route: intravenous

Structure (SMILES)	test	system	setting	tissue uptake
O=C([O-])CN1CCN(CC(=O)[O-])CCN(CC(=O)NC[C@H]2CC[C@H](C(=O)N[C@H](Cc3cnc4ccccc4c3)C(=O)NCCCC[C@H](NC(=O)N[C@@H](CCC(=O)O)C(=O)O)C(=O)O)CC2)CCN(CC(=O)[O-])CC1.[64Cu+2]	ex vivo gamma counting	22Rv1 tumour-bearing mice, blood	0.74 MBq, 6 h post-injection	2.51 %ID/g
COc1ccc(Nc2nc(Nc3ccc(OCCOCC[18F])cc3)ncc2Br)cc1	–	ICR mice, S180 tumour-bearing, bone	370 kBq, 15 min	3.3 ± 0.52 %ID/g
CCCC[C@H](NC(=O)CCCCCCCNC(=O)CN1CCN(CC(=O)O)CCN(CC(=O)O)CC1)C(=O)N[C@H]1CC(=O)NCCCC[C@@H](C(N)=O)NC(=O)[C@H](Cc2c[nH]c3ccccc23)NC(=O)[C@H](CCCNC(=N)N)NC(=O)[C@@H](Cc2ccccc2)NC(=O)[C@H](Cc2c[nH]cn2)NC1=O [fluorine-18 labelled]	–	C57 mice B16-F10 melanoma, tumor	0.37 MBq, 1 h	13 ± 0.98 %ID/g
CC(C)C[C@H](NC(=O)[C@@H](CCCCNC(=O)[C@@H](Cc1ccccc1)NC(=O)CCCCCCCNC(=O)CN1CCN(CC(=O)O)CCN(CC(=O)O)CCN(CC(=O)O)CC1)NC(=O)[C@H](Cc1ccc(O)cc1)NC(=O)[C@H](CO)NC(=O)[C@H](Cc1c[nH]c2ccccc12)NC(=O)[C@H](Cc1c[nH]cn1)NC(=O)[C@@H]1CCC(=O)N1)C(=O)N[C@@H](CCCNC(=N)N)C(=O)N1CCC[C@H]1C(=O)NCC(N)=O [indium-111 labelled]	–	male athymic nude mice, DU-145 prostate cancer xenograft, pancreas	dose not given, 1 h, together with: unlabeled blocking peptide 10 µg	0.24 ± 0.06 %ID/g
Cc1cc(C)n(CCN(CCN)CCCCCCNC(=O)[C@@H](N)Cc2c[nH]cn2)n1.[99Tc+].[C-]#[O+].[C-]#[O+].[C-]#[O+]	–	BALB/c nude mice A549 xenograft, tumor	4 h	0.91 %ID/g
O=C(NCC1OC2CCC=CCCC2O1)c1ccc([18F])nc1 (stereo not shown)	–	healthy female BALB/c nude mice, stomach	7.4 MBq per mouse, 60 min	1.5 ± 0.3 %ID/g
CCCC[C@H](NC(=O)COCCOCCNC(=O)CN1CCN(CC(=O)O)CCN(CC(=O)O)CC1)C(=O)N[C@H]1CC(=O)NCCCC[C@@H](C(N)=O)NC(=O)[C@H](Cc2c[nH]c3ccccc23)NC(=O)[C@H](CCCNC(=N)N)NC(=O)[C@@H](Cc2ccccc2)NC(=O)[C@H](Cc2c[nH]cn2)NC1=O [fluorine-18 labelled]	–	C57 mice B16-F10 melanoma, pancreas	0.37 MBq, 1 h	0.27 ± 0.4 %ID/g
CCCC[C@H](NC(=O)CNC(=O)CNC(=O)[C@H](CCCCNC(=O)[C@H](CC(=O)O)NC(=O)C(C)c1ccc(CC(C)C)cc1)NC(=O)CN1CCN(CC(=O)O)CCN(CC(=O)O)CCN(CC(=O)O)CC1)C(=O)N[C@H]1CC(=O)NCCCC[C@@H](C(N)=O)NC(=O)[C@H](Cc2c[nH]c3ccccc23)NC(=O)[C@H](CCCNC(=N)N)NC(=O)[C@@H](Cc2ccccc2)NC(=O)[C@H](Cc2c[nH]cn2)NC1=O (stereo partly shown) [lutetium-177 labelled]	–	C57 mice, tumour-bearing, liver	0.037 MBq, 4 h	2.45 ± 0.19 %ID/g
COc1ccc(Nc2nc(Nc3ccc(OCCOCCOCC[18F])cc3)ncc2Br)cc1	–	ICR mice, S180 tumour, intestine	370 kBq, 5 min	0.9 ± 0.06 %ID
O=C(NCC1OC2CCC=CCCC2O1)c1ccc(COCCOCCOCC[18F])cc1 (stereo not shown)	–	healthy female BALB/c nude mice, spleen	7.4 MBq per mouse, 120 min	1.6 ± 0.1 %ID/g
